Measured values gathered from unrelated publications.
± gives the spread as reported.
Technique: steady-state kinetics
B1: enzyme (Ectocarpus siliculosus, UniProt D7FYY3); chain KTASLATVSSLGIDKATGITKPSTVHHNLPYPQVFEHETKNKEGESTANGTFCVSTGQFTGRSPKDKYFVQQAPSDKTLDWGKINVGVAPKVFENIYNKAVKHYNDNVDSMYVFDGYCGTSPKSRKNVRIITELAWQHHFAKNMFIRPETEAETAGFKPDFTIINACKVVNDDYKELGLNSEVAVVFNVEERKAVITGTWYGGEMKKGIFSMMNYWLPLDGVMAMHCSANKGKNGDTALFFGLSGTGKTTLSADPERYLIGDDEHGWDDDGIFNFEGGCYAKTINLSHENEPEIYDAIKRDALLENVVIKDNGEPDYTDVSKTENTRVSYPIYHIDNYEPSGMGGHPNSVIFLTCDAFGILPPVSRLSAGQAMYHFLSGYTAKVAGTERGVTEPTPNFSAGFGAAFLTLHPTMYADLLQKKLAKHGTQCYLINTGWTGGGYGVGKRMSIKATRACVDAVLDGSIGKTTFTPDPVFGFEVPAELPGVPAKVLNPREAWSDKKGYDATRTKLAGMFKDNFTKFVKPGVTDYTSYGPK
B2: PYCR2 R251C (Homo sapiens, UniProt Q96C36); chain MSVGFIGAGQLAYALARGFTAAGILSAHKIIASSPEMNLPTVSALRKMGVNLTRSNKETVKHSDVLFLAVKPHIIPFILDEIGADVQARHIVVSCAAGVTISSVEKKLMAFQPAPKVIRCMTNTPVVVQEGATVYATGTHALVEDGQLLEQLMSSVGFCTEVEEDLIDAVTGLSGSGPAYAFMALDALADGGVKMGLPRRLAIQLGAQALLGAAKMLLDSEQHPCQLKDNVCSPGGATIHALHFLESGGFCSLLINAVEASCIRTRELQSMADQEKISPAALKKTLLDRVKLESPTVSTLTPSSPGKLLTRSLALGGKKD
B3: enzyme (Oryza sativa, UniProt Q6ZGQ4); chain ASGPPFSCGAPSSAAFCNPRLPIEQRADDLVSRLTLEEKISQLGDQSPAVDRLGVPAYKWWSEALHGVSNAGRGIHLDGPLRAATSFPQVILTAASFNPHLWYRIGQVIGTEARAVYNNGQAEGLTFWAPNINVFRDPRWGRGQETPGEDPTVTGKYAAVFVRGVQGYALAGAINSTDLEASACCKHFTAYDLENWKGVTRYAFDAKVTAQDLADTYNPPFRSCVEDGGASGIMCSYNRVNGVPTCADYNLLSKTARGDWRFYGYITSDCDAVSIIHDVQGYAKTAEDAVADVLKAGMDVNCGSYVQEHGLSAIQQGKITEQDINRALHNLFAVRMRLGLFNGNPKYNRYGNIGPDQVCTQEHQNLALEAAQHGVVLLKNDANALPLSKSQVSSIAVIGHNANDATRLLGNYFGPPCISVTPLQVLQGYVKDTRFLAGCNSAACNVSSIGEAAQLASSVDYVVLFMGLDQDQEREEVDRLELSLPGMQENLINTVANAAKKPVILVLLCGGPVDVTFAKYNPKIGAILWAGYPGEAGGIAIAQVLFGEHNPGGRLPVTWYPKEFTSVPMTDMRMRADPSTGYPGRTYRFYRGNTVYKFGYGLSYSKYSHHFVANGTKLPSLSSIDGLKAMATAAAGTVSYDVEEIGPETCDKLKFPALVRVQNHGPMDGRHPVLLFLRWPNGAADGGRPASQLIGFQSLHLKSMQTVHVEFEVSPCKHFSRATEDGKKVIDHGSHFMMVGDDEFEMSFTP
B4: enzyme Y157F (Mus musculus, UniProt P60334); chain MERTELLKPRTLADLIRILHELFAGDEVNVEEVQAVLEAYESNPAEWALYAKFDQYRYTRNLVDQGNGKFNLMILCWGEGHGSSIHDHTDSHCFLKLLQGNLKETLFDWPDKKSNEMIKKSERTLRENQCAYINDSIGLHRVENVSHTEPAVSLHLFSPPFDTCHAFDQRTGHKNKVTMTFHSKFGIRTPFTTSGSLENN
B5: aspC A106G/A218G/F210I/I29V/I33V/I68L/I71L/N30D/N64T/S135A/T100S/V136I/V375I (Escherichia coli, UniProt P00509); chain MFENITAAPADPILGLADLFRADERPGKVDLGVGVYKDETGKTPVLTSVKKAEQYLLENETTKTYLGLDGLPEFGRCTQELLFGKGSALINDKRARTAQSPGGTGGLRVAADFLAKNTSVKRVWVSNPSWPNHKAIFNSAGLEVREYAYYDAENHTLDFDALINSLNEAQAGDVVLFHGCCHNPTGIDPTLEQWQTLAQLSVEKGWLPLIDFAYQGFGRGLEEDAEGLRAFAAMHKELIVASSYSKNFGLYNERVGACTLVAADSETVDRAFSQMKAAIRANYSNPPAHGASVVATILSNDALRAIWEQELTDMRQRIQRMRQLFVNTLQEKGANRDFSFIIKQNGMFSFSGLTKEQVLRLREEFGVYAVASGRINVAGMTPDNMAPLCEAIVAVL
B6: enzyme C458A (Methanosarcina mazei, UniProt Q8PVB1); chain MSEQRSVPLREHLLALKPCRHGGLIQETSETYGIPENEILDFSANFNPLGSPFDYPENGLNFEDIIKKSCGKLLEYPDNRYVEFREAAARFVGLGVTPQSIVPGNGSTEIVRLVVESVIEKGDKVLLPWPTFGEYEMQCRITGAEPVCPSQEEVNTLPDEVLEEAKILFICNPNNPTGKLRTREELKVLAERCREHKTLLYVDEAFIELSDPSQSVADLPAENNYVFVMRSLTKDFAIPGIRMGFGIAPPAMADILNTARLSWNLGAIANNTGIALLNIEGGIDSPYLKKAREMILKEGETLKAKIDRIRGFEAGEVNVNFILVDVSKFMLNSSELTARLAARGVLVRDCVSFHGLGKNYIRVAVRTEKENDRLIAAIGDVITEWGREQAKNELQHVIEKASEEGIGGRKTCEYYPCHFEGQNCTFCFCPFYPCENEKTGGKWIQSSRGGRVWSCVDAHLVHKKEIAQKILDCLMHEGDTDELVKVAWKEVMEPIL
B7: enzyme S252E/S281E/S285E/S287E (Schizosaccharomyces pombe, UniProt P78804); chain MSTPYEPEFQQAYKEIVGSIESSKLFEVHPELKRVLPIISIPERVLEFRVTWEDDKGNCRVNTGYRVQFNSALGPYKGGLRFHPSVNLSILKFLGFEQIFKNALTGLPMGGGKGGSDFDPKGKSDNEIRRFSQAFMRQLFRYIGPQTDVPAGDIGVTGFVVMHMFGEYKRLRNEYSGVVTGKHMLTGGSNIRPEATGYGVVYYVKHMIEHRTKGAETLKGKRVAISGSGNVAQYAALKCIQEGAIVKSISDEKGVLIAKTAEGLVPEEIHEIMALKEKRAEIADEAELCKKHHYIAGARPWTNVGEIDIALPCATQNEVSGEEAAALIKQGCRYVAEGSNMGSSAEAVEVFEKSRASGEGCWLAPGKAANAGGVAVSGLEMAQNAQFSTWTHAEVDAKLAGIMQNIFEQSTDVASKYCDSGSNNIPSLVDGANIAGFLKVATAMQAVGDWW
B8: UGT76G1 (Stevia rebaudiana, UniProt Q6VAB4); chain MENKTETTVRRRRRIILFPVPFQGHINPILQLANVLYSKGFSITIFHTNFNKPKTSNYPHFTFRFILDNDPQDERISNLPTHGPLAGMRIPIINEHGADELRRELELLMLASEEDEEVSCLITDALWYFAQSVADSLNLRRLVLMTSSLFNFHAHVSLPQFDELGYLDPDDKTRLEEQASGFPMLKVKDIKSAYSNWQILKEILGKMIKQTKASSGVIWNSFKELEESELETVIREIPAPSFLIPLPKHLTASSSSLLDHDRTVFQWLDQQPPSSVLYVSFGSTSEVDEKDFLEIARGLVDSKQSFLWVVRPGFVKGSTWVEPLPDGFLGERGRIVKWVPQQEVLAHGAIGAFWTHSGWNSTLESVCEGVPMIFSDFGLDQPLNARYMSDVLKVGVYLENGWERGEIANAIRRVMVDEEGEYIRQNARVLKQKADVSLMKGGSSYESLESLVSYISSL
UniProt P09546, sequence (whole entry, looked up): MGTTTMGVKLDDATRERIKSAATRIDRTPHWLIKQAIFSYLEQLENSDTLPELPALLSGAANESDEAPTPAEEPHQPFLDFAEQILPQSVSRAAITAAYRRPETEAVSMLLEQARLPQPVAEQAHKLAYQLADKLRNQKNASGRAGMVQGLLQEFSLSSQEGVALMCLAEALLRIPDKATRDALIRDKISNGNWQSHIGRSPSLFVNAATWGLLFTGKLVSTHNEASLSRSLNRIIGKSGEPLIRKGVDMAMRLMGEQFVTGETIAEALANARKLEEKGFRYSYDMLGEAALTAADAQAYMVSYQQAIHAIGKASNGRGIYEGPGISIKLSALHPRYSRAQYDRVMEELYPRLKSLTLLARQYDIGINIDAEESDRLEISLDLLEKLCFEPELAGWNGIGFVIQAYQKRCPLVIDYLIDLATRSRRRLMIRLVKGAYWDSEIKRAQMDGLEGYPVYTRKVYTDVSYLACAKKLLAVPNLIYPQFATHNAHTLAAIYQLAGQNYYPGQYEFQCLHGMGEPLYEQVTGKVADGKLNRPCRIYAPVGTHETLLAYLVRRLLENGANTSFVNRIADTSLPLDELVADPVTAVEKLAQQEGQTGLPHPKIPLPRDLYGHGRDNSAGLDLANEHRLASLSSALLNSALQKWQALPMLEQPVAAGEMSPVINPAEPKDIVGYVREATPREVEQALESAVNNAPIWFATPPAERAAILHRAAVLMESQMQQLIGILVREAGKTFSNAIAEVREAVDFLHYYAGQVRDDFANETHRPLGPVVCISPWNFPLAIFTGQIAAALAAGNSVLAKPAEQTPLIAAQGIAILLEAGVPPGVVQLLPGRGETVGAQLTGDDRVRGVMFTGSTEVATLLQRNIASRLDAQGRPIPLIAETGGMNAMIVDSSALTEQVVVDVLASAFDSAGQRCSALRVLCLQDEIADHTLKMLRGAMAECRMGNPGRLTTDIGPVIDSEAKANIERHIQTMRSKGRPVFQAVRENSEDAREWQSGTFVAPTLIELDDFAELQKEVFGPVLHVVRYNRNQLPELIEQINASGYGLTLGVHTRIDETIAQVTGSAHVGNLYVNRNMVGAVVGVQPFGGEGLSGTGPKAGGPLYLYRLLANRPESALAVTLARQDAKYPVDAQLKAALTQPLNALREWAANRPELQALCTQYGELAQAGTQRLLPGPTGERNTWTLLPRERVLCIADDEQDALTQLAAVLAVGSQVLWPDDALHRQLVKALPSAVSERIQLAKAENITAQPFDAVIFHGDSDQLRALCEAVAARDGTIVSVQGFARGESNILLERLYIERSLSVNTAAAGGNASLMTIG
UniProt Q93UV0, sequence (whole entry, looked up): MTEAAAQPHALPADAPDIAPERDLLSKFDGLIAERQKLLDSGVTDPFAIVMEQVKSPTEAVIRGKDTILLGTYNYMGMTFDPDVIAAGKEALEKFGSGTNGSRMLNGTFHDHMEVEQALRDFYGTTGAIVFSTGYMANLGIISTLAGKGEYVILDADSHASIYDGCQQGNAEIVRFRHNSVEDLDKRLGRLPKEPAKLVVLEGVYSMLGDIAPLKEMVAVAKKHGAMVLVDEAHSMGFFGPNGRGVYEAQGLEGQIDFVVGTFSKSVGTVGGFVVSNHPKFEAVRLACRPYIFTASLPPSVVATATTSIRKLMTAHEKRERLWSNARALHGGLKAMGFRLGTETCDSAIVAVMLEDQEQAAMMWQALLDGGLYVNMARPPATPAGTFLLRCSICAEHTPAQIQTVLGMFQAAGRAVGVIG
UniProt P0AE52, sequence (whole entry, looked up): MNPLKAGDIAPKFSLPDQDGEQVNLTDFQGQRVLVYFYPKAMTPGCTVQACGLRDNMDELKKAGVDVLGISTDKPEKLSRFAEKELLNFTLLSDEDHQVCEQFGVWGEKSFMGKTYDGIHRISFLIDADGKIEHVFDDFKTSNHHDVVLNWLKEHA
UniProt P26208, sequence (whole entry, looked up): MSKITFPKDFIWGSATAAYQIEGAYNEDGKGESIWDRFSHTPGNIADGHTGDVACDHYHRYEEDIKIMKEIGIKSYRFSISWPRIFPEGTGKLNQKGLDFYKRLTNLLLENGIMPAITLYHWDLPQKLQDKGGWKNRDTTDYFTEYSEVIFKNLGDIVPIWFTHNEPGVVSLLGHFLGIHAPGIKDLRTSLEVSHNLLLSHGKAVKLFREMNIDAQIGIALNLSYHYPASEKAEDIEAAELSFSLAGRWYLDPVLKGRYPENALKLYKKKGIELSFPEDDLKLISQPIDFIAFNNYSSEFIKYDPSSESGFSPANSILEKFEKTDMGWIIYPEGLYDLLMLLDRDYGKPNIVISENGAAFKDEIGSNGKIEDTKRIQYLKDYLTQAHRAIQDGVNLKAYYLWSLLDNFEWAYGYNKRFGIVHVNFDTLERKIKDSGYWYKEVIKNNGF
UniProt P00327, sequence (whole entry, looked up): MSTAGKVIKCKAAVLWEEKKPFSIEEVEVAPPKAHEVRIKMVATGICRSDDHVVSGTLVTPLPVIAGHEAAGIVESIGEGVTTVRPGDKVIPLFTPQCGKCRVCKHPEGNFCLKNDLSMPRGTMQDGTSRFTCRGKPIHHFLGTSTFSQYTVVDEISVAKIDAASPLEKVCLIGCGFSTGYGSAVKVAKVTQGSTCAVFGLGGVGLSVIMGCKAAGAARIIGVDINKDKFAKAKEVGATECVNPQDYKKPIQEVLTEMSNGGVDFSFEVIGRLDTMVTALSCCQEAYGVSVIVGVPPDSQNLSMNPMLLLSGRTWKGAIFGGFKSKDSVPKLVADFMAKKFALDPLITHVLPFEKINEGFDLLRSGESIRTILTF

With `bglA (Acetivibrio thermocellus, UniProt P26208)` the kcat/Km was 140000 ± 13000 M⁻¹ s⁻¹ (O=[N+]([O-])c1ccc(O[C@@H]2O[C@H](CO)[C@@H](O)[C@H](O)[C@H]2O)cc1; pH 5.5, 60 °C).
The kcat/Km of `B1 (enzyme)` is reported as 140000 M⁻¹ s⁻¹ (Nc1ncnc2c1ncn2[C@@H]1O[C@H](COP(=O)(O)OP(=O)(O)O)[C@@H](O)[C@H]1O; pH 5.5, 25 °C, with: 16 mM PEP).
The kcat/Km of `gdh E198C (Bacillus subtilis)` is reported as 21500 ± 1500 M⁻¹ s⁻¹ (NC(=O)c1ccc[n+]([C@@H]2O[C@H](COP(=O)(O)OP(=O)(O)OC[C@H]3O[C@@H](n4cnc5c(N)ncnc54)[C@H](O)[C@@H]3O)[C@@H](O)[C@H]2O)c1; pH 8, 45 °C).
`B2 (PYCR2 R251C)` has a kcat/Km of 15000 ± 1000 M⁻¹ s⁻¹ (NC(=O)C1=CN([C@@H]2O[C@H](COP(=O)(O)OP(=O)(O)OC[C@H]3O[C@@H](n4cnc5c(N)ncnc54)[C@H](OP(=O)(O)O)[C@@H]3O)[C@@H](O)[C@H]2O)C=CC1; pH 7.5, 37 °C, apparent, cofactor varied, with: DL-P5C 5000 µM).
`enzyme (Chlorobaculum tepidum, UniProt Q8KC02)` gave a kcat/Km of 11300 M⁻¹ s⁻¹ (CC(=O)C(=O)O; pH 7.5, 30 °C).
For `B3 (enzyme)`, the kcat/Km was 2.2 M⁻¹ s⁻¹ (O=[N+]([O-])c1ccc(O[C@@H]2OC[C@H](O)[C@H](O)[C@H]2O)cc1; pH 4, 40 °C, apparent).
`B4 (enzyme Y157F)` has a kcat/Km of 11.6 M⁻¹ s⁻¹ (N[C@@H](CS)C(=O)O; pH 7.5, 37 °C).
For `B5`, the kcat/Km was 29000 M⁻¹ s⁻¹ (N[C@@H](Cc1ccc(O)cc1)C(=O)O; pH 7.5, 25 °C, with: PLP 20 µM).
For `B6 (enzyme C458A)`, the kcat/Km was 2200 ± 600 M⁻¹ s⁻¹ (Nc1ncnc2c1ncn2[C@@H]1O[C@H](COP(=O)(O)OP(=O)(O)OP(=O)(O)O)[C@@H](O)[C@H]1O; pH 8.5, 25 °C, apparent, anoxic, with: L-Thr 10 mM).
`putA (Escherichia coli, UniProt P09546)` gave a kcat/Km of 70 ± 3.8 M⁻¹ s⁻¹ (O=C(O)[C@@H]1CCCN1; pH 7.4, with: CoQ1).
With `enzyme (Pseudanabaena biceps, UniProt L8N0N6)` the kcat/Km was 290 ± 10 M⁻¹ s⁻¹ (NC(=O)c1ccc[n+]([C@@H]2O[C@H](COP(=O)(O)O)[C@@H](O)[C@H]2O)c1; pH 7.4, 30 °C, apparent, cofactor varied).
`enzyme (Equus caballus, UniProt P00327)` gave a kcat/Km of 800 M⁻¹ s⁻¹ (NC(=O)c1ccc[n+]([C@@H]2O[C@H](COP(=O)(O)OP(=O)(O)OC[C@H]3O[C@@H](n4cnc5c(N)ncnc54)[C@H](O)[C@@H]3O)[C@@H](O)[C@H]2O)c1; pH 7, 30 °C, cofactor varied).
`spt (Sphingomonas paucimobilis, UniProt Q93UV0)` gave a kcat/Km of 21000 M⁻¹ s⁻¹ (CCCCCCCCCCCCCCCC(=O)SCCNC(=O)CCNC(=O)[C@H](O)C(C)(C)COP(=O)(O)OP(=O)(O)OC[C@H]1O[C@@H](n2cnc3c(N)ncnc32)[C@H](O)[C@@H]1OP(=O)(O)O; with: PLP).
`B7 (enzyme S252E/S281E/S285E/S287E)` has a kcat/Km of 12000 ± 1000 M⁻¹ s⁻¹ (NC(=O)C1=CN([C@@H]2O[C@H](COP(=O)(O)OP(=O)(O)OC[C@H]3O[C@@H](n4cnc5c(N)ncnc54)[C@H](O)[C@@H]3O)[C@@H](O)[C@H]2O)C=CC1; pH 7, 30 °C, apparent).
`bcp (Escherichia coli, UniProt P0AE52)` has a kcat/Km of 12000 M⁻¹ s⁻¹ (CC(C)(OO)c1ccccc1; pH 7, 25 °C, apparent).
With `B8 (UGT76G1)` the kcat/Km was 1680 M⁻¹ s⁻¹ (C=C1C[C@@]23CC[C@H]4[C@@](C)(CCC[C@@]4(C)C(=O)O[C@@H]4O[C@H](CO)[C@@H](O)[C@H](O)[C@H]4O)[C@@H]2CC[C@]1(O[C@@H]1O[C@H](CO)[C@@H](O)[C@H](O)[C@H]1O)C3; pH 7.25, 40 °C).

For quick reference, copied from above:
`putA (Escherichia coli, UniProt P09546)` gave a kcat/Km of 70 ± 3.8 M⁻¹ s⁻¹ (O=C(O)[C@@H]1CCCN1; pH 7.4, with: CoQ1).
`B2 (PYCR2 R251C)` has a kcat/Km of 15000 ± 1000 M⁻¹ s⁻¹ (NC(=O)C1=CN([C@@H]2O[C@H](COP(=O)(O)OP(=O)(O)OC[C@H]3O[C@@H](n4cnc5c(N)ncnc54)[C@H](OP(=O)(O)O)[C@@H]3O)[C@@H](O)[C@H]2O)C=CC1; pH 7.5, 37 °C, apparent, cofactor varied, with: DL-P5C 5000 µM).
The kcat/Km of `gdh E198C (Bacillus subtilis)` is reported as 21500 ± 1500 M⁻¹ s⁻¹ (NC(=O)c1ccc[n+]([C@@H]2O[C@H](COP(=O)(O)OP(=O)(O)OC[C@H]3O[C@@H](n4cnc5c(N)ncnc54)[C@H](O)[C@@H]3O)[C@@H](O)[C@H]2O)c1; pH 8, 45 °C).
